Published values collected from several papers.
A part holds a random share of what one study measured.

Sample 1
Target: RING finger protein unkempt homolog, zinc fingers 1-6, GST-SBP tag (UNK, Homo sapiens, UniProt Q9C0B0, residues 30-357)
UniProt Q9C0B0, sequence (30-357, looked up): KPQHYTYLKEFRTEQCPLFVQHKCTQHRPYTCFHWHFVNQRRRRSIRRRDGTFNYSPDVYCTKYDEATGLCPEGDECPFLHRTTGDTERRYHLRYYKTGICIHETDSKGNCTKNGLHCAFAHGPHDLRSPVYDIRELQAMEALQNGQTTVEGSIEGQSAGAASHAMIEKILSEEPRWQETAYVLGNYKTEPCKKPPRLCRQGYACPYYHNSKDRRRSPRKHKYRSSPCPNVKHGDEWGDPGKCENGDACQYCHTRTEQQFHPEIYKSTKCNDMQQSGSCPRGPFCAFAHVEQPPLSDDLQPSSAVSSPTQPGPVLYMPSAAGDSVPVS
Technique: RNA Bind-n-Seq
Form: RNA
Matrix: in vitro
Concentration: not given
Notes: RNA with constant flanks, human-mouse chimeric sites, ends assumed
Baseline: input RNA pool
Direction: higher = stronger binding
Quantity: bound/input enrichment
All sequences stand within: GGGAGUUCUACAGUCCGACGAUC … CAACAGAGGAUUGAGCAUCA
UUAUCCAAGACUCAACGAAAGACUCCAACGGUUAUUCAUAAACAUUAUCAAAUUCAUCGCAUUAGACAUUUUUAUAUGAGAAAAGUCAAAUUUACUCAACAGAAUUACCAUGAUAGACUG: 9.62 ratio
CAGGGCAUCAUCUCUCGUGCUGUUAGACACCUUUUUAAGAGUAUUGAUGAGAAAAAGACCUCAGCGAUUAAAAACGGGCUGCCCCCUCCUGAAUUCAAAGUGAAUGCCCAAUUCUUAGAG: 0.826 ratio
GCUGAAAAUGAAGAAGAGGCAGCUGAUGUCUGGUACAACCUGGGGCACAUAGCUGUGGGAAUAGGAGAUACAAACUUGGCCCACCAAUGCUUCAGGCUGGCUCUGGUCCACAACAACCAC: 0.293 ratio
GUAGCUGGGACUACAGAAAUGCUGGUAAUUUCAGUCAGUGAGUCGUGACUUCUGAUGUCCCAGCAAAUGUUGGCAUUGUUGACUGCUGAGAAGAUACUUCUGAGGACAUACAGCAGUGGU: 0.103 ratio
CUGUGACCACAAGAUCCUGAAGUUUGAGCAGCUGAAGCACUUUUCUUCUCCUUGCCUGAACCCCCCCCCACUGCCCCCCCAUCCCCCAGUGUCGGCUGAGAUGUUGCCUCUGCACGGUUC: 1.32 ratio

Sample 2
Target: Sal-like protein 4, full length isoform A (SALL4, Homo sapiens, UniProt Q9UJQ4, residues 1-1053)
UniProt Q9UJQ4, sequence (whole entry, looked up): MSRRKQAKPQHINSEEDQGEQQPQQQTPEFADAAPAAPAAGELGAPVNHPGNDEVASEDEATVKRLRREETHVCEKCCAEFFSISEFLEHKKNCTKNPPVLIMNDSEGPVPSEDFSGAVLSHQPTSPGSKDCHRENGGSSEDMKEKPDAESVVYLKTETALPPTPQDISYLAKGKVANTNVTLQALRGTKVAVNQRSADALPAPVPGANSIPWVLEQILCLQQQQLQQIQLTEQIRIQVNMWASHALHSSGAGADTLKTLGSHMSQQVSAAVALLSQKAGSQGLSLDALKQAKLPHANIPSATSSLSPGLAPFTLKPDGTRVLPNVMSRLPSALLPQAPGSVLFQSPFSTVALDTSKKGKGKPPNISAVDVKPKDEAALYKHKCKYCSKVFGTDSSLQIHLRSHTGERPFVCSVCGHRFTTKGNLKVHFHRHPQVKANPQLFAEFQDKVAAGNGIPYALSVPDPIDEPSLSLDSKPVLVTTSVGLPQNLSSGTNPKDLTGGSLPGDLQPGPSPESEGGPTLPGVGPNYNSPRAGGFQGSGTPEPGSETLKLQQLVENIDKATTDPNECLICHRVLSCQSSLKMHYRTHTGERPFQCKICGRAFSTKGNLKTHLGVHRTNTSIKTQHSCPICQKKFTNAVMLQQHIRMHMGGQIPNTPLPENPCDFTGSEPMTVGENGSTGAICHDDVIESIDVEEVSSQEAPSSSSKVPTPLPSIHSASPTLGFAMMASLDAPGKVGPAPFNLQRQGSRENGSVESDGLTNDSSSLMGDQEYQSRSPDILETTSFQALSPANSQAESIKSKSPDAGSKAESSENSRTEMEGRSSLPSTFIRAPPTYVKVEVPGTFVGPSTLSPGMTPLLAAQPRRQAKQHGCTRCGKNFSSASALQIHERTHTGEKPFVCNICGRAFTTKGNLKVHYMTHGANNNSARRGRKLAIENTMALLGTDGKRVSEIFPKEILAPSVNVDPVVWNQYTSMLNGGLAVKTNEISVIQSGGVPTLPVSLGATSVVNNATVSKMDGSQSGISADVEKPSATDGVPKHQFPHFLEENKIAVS
Technique: universal PBM
Form: double-stranded DNA, one strand shown
Matrix: in vitro
Concentration: 600 nM
Notes: 8-mer, flanks averaged, mean of replicates
Direction: higher = stronger binding
Quantity: E-score
GAATTTGC: 0.135
TCCAAACA: 0.0611
ACCGTGTA: 0.0674
CTTCAGAC: -0.11
TCCGAACA: -0.0356
GAACAGTC: -0.207
CCCTCCGC: -0.214
ACATCATC: 0.168

Sample 3
Target: Interferon regulatory factor 7, full length, phosphomimetic (IRF7, Homo sapiens, UniProt Q92985, residues 1-503, S101K/S471D/S472D/S475D/S476D/S477D/S483D/S484D/S487D)
UniProt Q92985, sequence (whole entry, unmodified, looked up): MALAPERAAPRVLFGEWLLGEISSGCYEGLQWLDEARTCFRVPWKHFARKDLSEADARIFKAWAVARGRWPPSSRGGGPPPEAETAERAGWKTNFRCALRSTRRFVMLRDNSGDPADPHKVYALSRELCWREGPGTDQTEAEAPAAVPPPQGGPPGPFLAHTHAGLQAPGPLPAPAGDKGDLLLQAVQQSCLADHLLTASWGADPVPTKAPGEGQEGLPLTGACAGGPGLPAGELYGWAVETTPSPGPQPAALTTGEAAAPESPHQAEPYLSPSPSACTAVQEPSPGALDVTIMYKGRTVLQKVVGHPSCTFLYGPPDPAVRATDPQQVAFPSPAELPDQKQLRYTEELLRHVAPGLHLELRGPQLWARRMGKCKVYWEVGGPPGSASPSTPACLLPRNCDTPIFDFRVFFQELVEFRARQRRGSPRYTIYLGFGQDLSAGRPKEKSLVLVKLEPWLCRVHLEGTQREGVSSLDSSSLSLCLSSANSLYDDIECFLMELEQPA
Technique: protein-binding microarray
Form: double-stranded DNA, one strand shown
Matrix: in vitro
Concentration: 250 nM
Notes: 60-bp whole probe
Together with: salmon DNA 0.4 mg/ml
Baseline: random background probes
Direction: higher = stronger binding
Quantity: log fluorescence
All sequences stand within: GCCTAGCAC … GTCTTGATTCGCTTGACGCTGCTG
TGTGCCATATTTATCTGCAAGTGCTAG: 0.439 z-score
GACGGTATAGGTTTCGGGACGTGCTAG: 2.21 z-score
TTAGATTTCGTGTATCGATTAGTGCTA: 0.953 z-score
TTAGGTTTCGGAATGGGTTAGTGCTAG: 10.1 z-score
TCACCTTTTAATTTTTAACTGTGCTAG: 0.752 z-score
TTTGGTTTCGGTTCCGGTTAGTGCTAG: 13.4 z-score
AGTCGTGAGCCGCACAGTGGGTGCTAG: -0.964 z-score
GACGATATCAGACTCGAGACGTGCTAG: 0.357 z-score

Single results of other studies
PhoQ, residues 284 288 289 292 302 303 SVTLVV  fold induction (PhoP, residues 12 14 15 18 19 HEGLL (Escherichia coli, UniProt P23836); Sort-seq, refers to: YFP reporter; E. coli; PhoQ-PhoP variant library, together with: 10 µM Mg2+; baseline: high Mg2+ state, higher = stronger signaling): 4.52
